Assay results pooled from the literature.
Protocols differ between the studies behind these lines. Values joined by “and” are separate records of one study, mostly repeats; a detail may differ. ± gives the spread as reported.
ACHE: Acetylcholinesterase (ACHE, Homo sapiens, UniProt P22303)
Chain of UniProt P22303 (whole entry, looked up): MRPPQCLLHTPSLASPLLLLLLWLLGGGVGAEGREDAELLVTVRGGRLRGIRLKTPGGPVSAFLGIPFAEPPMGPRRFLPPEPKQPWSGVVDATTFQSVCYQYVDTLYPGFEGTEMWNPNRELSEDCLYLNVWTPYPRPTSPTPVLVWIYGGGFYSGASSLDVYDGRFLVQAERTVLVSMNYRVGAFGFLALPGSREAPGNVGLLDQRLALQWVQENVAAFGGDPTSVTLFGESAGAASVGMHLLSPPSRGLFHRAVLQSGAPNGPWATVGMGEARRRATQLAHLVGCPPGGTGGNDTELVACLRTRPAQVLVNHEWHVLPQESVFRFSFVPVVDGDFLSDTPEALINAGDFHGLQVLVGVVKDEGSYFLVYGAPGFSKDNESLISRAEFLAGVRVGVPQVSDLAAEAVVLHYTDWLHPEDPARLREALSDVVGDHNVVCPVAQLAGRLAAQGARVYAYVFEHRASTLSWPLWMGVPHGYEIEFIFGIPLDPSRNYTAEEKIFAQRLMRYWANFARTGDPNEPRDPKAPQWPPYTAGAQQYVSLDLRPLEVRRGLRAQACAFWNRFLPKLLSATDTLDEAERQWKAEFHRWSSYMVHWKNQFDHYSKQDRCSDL
PFF0160c E182D: Dihydroorotate dehydrogenase (quinone), mitochondrial (PFF0160c, Plasmodium falciparum, UniProt Q08210, E182D)
Chain of UniProt D0VWV4 (whole entry, looked up): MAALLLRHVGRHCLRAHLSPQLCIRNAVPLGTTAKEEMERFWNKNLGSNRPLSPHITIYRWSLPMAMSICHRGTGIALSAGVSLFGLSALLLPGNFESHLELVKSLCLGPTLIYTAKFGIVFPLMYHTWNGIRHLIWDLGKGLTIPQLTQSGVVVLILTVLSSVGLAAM
Chain of UniProt A5GZW8 (whole entry, looked up): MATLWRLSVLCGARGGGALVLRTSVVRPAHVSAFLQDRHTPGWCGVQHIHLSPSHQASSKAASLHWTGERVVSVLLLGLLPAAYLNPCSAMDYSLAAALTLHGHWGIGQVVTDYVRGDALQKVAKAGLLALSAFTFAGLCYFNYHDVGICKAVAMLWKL
Chain of UniProt Q007T0 (whole entry, looked up): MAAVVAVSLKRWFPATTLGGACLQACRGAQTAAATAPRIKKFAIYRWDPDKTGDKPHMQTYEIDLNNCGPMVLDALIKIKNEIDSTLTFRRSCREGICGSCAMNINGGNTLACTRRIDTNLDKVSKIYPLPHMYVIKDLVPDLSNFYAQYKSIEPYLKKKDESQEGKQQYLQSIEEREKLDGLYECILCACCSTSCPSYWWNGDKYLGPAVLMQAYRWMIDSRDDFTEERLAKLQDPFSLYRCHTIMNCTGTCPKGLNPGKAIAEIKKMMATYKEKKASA
Chain of UniProt Q9GZZ6 (whole entry, looked up): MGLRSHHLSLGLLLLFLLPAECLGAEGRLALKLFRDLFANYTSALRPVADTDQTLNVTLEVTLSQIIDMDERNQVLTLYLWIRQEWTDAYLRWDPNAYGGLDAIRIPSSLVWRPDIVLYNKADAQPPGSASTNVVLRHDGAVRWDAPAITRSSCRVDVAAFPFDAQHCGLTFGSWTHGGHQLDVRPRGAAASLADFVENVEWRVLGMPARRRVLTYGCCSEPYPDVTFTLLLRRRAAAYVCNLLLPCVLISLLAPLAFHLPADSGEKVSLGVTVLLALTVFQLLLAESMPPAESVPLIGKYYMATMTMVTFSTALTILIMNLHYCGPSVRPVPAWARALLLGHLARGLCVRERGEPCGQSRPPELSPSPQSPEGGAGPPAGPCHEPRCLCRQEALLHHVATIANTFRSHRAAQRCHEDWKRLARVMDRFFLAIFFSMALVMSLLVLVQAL
Chain of UniProt Q9UGM1 (whole entry, looked up): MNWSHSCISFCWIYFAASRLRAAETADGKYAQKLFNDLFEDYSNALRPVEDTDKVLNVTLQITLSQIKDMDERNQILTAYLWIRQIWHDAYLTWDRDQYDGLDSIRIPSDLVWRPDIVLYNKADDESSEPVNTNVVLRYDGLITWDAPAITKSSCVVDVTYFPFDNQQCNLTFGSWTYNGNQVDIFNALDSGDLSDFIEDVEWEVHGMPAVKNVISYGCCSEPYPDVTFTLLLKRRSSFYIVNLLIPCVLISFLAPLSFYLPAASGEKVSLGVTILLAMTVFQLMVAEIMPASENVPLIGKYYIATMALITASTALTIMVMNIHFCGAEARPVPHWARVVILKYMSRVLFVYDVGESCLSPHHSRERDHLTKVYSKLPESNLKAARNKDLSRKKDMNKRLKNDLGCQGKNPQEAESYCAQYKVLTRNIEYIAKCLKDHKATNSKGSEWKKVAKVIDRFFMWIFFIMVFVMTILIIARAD
Chain of UniProt P10721 (whole entry, looked up): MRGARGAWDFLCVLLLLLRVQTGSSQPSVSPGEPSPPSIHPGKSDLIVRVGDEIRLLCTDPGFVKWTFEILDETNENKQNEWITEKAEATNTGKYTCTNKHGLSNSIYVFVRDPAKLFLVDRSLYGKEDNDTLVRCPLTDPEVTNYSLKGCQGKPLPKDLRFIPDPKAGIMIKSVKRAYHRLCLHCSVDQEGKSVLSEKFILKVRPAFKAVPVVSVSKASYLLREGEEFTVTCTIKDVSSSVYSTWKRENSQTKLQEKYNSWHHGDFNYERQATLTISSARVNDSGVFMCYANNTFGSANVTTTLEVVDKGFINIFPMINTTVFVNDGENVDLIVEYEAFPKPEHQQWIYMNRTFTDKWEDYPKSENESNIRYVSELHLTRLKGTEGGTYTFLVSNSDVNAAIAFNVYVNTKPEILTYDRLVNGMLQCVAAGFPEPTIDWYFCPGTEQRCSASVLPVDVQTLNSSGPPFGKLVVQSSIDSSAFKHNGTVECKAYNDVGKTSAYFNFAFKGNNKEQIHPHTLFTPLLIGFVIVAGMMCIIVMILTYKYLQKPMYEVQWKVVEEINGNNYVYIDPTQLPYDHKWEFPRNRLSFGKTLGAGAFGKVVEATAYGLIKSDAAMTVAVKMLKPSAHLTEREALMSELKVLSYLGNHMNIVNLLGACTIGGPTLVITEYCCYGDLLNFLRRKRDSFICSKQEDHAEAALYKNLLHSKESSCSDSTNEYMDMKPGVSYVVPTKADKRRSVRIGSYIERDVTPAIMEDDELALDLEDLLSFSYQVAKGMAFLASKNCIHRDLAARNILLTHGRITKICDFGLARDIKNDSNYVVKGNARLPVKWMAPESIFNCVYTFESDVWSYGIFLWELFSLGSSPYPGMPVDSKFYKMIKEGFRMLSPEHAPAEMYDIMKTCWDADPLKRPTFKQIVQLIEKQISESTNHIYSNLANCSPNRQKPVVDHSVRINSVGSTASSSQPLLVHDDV
Chain of UniProt Q96RI1 (whole entry, looked up): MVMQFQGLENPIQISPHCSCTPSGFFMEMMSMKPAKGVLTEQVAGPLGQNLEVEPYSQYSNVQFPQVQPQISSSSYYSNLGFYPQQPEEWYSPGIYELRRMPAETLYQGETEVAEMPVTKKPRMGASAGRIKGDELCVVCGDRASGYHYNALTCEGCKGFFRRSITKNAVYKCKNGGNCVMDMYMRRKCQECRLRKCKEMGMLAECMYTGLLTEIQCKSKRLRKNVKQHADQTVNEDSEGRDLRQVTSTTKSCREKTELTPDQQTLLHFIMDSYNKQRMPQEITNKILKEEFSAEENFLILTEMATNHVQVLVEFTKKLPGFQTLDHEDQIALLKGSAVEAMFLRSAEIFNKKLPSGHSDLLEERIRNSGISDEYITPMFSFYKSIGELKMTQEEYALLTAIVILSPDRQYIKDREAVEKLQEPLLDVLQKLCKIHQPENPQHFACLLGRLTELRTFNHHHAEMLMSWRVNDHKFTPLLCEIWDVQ
Chain of UniProt Q16513 (whole entry, looked up): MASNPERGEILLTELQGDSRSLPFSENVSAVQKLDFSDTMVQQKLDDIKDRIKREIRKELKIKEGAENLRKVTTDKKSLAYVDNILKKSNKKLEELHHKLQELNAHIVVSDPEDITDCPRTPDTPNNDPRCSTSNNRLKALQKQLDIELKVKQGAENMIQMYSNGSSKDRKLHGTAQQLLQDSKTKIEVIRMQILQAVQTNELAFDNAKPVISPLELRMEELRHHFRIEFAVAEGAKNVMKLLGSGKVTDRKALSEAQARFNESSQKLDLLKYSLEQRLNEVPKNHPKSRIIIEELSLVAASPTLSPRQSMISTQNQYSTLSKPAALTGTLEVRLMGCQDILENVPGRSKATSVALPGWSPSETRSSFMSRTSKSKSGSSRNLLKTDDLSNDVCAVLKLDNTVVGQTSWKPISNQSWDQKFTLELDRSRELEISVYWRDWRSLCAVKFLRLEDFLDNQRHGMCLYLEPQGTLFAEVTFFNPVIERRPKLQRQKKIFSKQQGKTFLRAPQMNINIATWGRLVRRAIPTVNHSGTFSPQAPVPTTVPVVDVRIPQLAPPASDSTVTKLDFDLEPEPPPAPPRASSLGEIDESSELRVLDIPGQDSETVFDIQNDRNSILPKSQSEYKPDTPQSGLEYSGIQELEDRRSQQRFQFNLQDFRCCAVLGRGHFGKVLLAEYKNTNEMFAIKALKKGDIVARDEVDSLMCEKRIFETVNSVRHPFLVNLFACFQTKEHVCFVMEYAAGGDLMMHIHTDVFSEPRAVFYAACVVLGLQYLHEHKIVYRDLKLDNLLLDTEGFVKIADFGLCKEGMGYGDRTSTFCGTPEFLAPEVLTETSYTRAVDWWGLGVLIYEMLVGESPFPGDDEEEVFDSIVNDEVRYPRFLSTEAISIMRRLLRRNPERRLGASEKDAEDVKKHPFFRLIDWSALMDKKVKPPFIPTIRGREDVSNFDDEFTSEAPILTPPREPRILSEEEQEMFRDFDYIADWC
Chain of UniProt O43684 (whole entry, looked up): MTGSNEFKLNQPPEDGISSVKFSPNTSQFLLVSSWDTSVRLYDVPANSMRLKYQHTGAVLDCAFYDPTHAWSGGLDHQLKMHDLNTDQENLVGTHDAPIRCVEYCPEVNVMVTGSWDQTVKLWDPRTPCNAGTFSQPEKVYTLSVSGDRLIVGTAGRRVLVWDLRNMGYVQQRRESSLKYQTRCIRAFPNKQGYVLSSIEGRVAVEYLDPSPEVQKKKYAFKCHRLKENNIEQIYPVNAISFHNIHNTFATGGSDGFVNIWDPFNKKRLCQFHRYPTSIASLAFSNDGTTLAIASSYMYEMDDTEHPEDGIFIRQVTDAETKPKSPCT

Cc1cn([C@H]2C[C@H](O)[C@@H](COP(=O)(O)OP(=O)(O)OP(=O)(O)O)O2)c(=O)[nH]c1=O
maximum incorporation rate (DNA polymerase I, Klenow fragment (polA, Escherichia coli, UniProt P00582, C907S/D424A/L744C); nucleotide incorporation, substrate, single-turnover rapid quench; added: radiolabelled primer-template DNA): 40 ± 2 s⁻¹

Clc1cc2c(cc1Cl)Oc1cc(Cl)c(Cl)cc1O2
fold induction (Uncharacterized protein (Takifugu rubripes, UniProt Q4JHL3); reporter gene, agonist, dual-luciferase; COS-7; 0.1 µM, 28 h; relative to: DMSO): 3.13

c1ccc2c3c(ccc2c1)-c1cccc2cccc-3c12
fold change (Aryl hydrocarbon receptor (Danio rerio, UniProt Q9YGV3); reporter gene, agonist, luciferase reporter; ZF-4; 123.5 µM; relative to: vehicle control): 13.3

COc1ncccc1-c1cnn2ccc(N3CCN(C(=O)OC(C)C)CC3)nc12
remaining binding (Non-receptor tyrosine-protein kinase TYK2, JH2 pseudokinase domain (TYK2, Homo sapiens, UniProt P29597); KINOMEscan binding; 1 µM; relative to: untreated control): 74%

CCCCC/C=C\C/C=C\C/C=C\C/C=C\CCCC(=O)NCCO
maximal open probability (Trpv1 (Mus musculus, UniProt Q704Y3, Y512F); ion current, agonist, whole-cell patch clamp; Y512F; relative to: 3 mM 2-APB): 0.73 ± 0.17

CN1CCN(c2cc(-c3ccncc3)c(-c3ccc4ccccc4c3)nn2)CC1
activation (GALR1 (Homo sapiens, UniProt P47211); agonist, FLIPR; 12.5 µM): -1%

C=C(CN(C(=O)c1c(C(F)F)nn(C)c1F)C1CC1)c1ccc(Cl)cc1Cl
reaction velocity (SDHD/SDHC/SDHB (Sus scrofa, UniProt A5GZW8+D0VWV4+Q007T0); enzyme activity, inhibitor, DCIP reduction; pig; 0.1 µM, added: DCIP 160 µM): 0.0267 µM/s and 0.027 µM/s

CC(C)(C)CC(C)(C)c1ccc(O)c(Cc2ccc(Cl)cc2Cl)c1
activity class (ACHE; biochemical; concentration not given): inactive

[2H]c1c([2H])c([C@]2([2H])CCCN2C(=O)C(C)(C)Oc2ccc3cn[nH]c3c2)c([2H])c([2H])c1C([2H])([2H])[2H]
remaining binding (HASPIN (Homo sapiens, UniProt Q8TF76); KINOMEscan; 1 µM; relative to: DMSO control): 72%

Nc1ncnc2c1ncn2[C@@H]1O[C@H](COP(=O)(O)OP(=O)(O)NP(=O)(O)O)[C@@H](O)[C@H]1O
ΔH (Cell cycle histidine kinase CckA, cytoplasmic region (Caulobacter vibrioides, UniProt Q9X688); ITC; added: c-di-GMP 100 µM): -2.52 ± 0.352 kcal/mol

COc1ccc2[nH]c3c(c2c1)CCN(C)CC3.Cl
recovery time constant (Neuronal acetylcholine receptor; alpha9/alpha10 (Homo sapiens, UniProt Q9GZZ6+Q9UGM1); ion current, inhibitor, two-electrode voltage clamp; Xenopus laevis oocytes; 3 µM, human receptor, added: acetylcholine 6 µM): 9.6 s

Cc1nn(C)cc1-c1nc2c(N3CCN(Cc4ccc(Cl)cc4)CC3)c(Cl)cnc2[nH]1
remaining binding (PKN2 (Homo sapiens, UniProt Q16513); KINOMEscan; 1 µM; relative to: DMSO control): 33%

Cc1cc(Nc2ccc(Cl)c(Cl)c2)n2nc(C)nc2n1
IC50 ratio (PFF0160c E182D; enzyme activity, DCIP colorimetric; relative to: E182D mutant over wild type): 9.6

Cc1ccc2c(c1)C=CC21CCN(C2Cc3ccccc3CC2O)CC1 (racemic)
selectivity ratio (Vesicular acetylcholine transporter (Rattus norvegicus, UniProt Q62666); rat liver (sigma2); relative to: Ki sigma2 over Ki VAChT): 43

O=C(c1ccc(Cl)cc1)N1CCN2C(=O)N(OC(=O)N3CCOc4ccccc43)C(=O)C2C1 (stereo not shown)
median protein ratio (PPIA (Homo sapiens, UniProt P62937); MS-based ABPP; SW-620 conditioned medium; 10 µM, 1 h, 37 °C; relative to: compound over DMSO, lower = more inhibition): 1.21

CN(C(=O)n1cnc(-c2ccc[n+]([O-])c2)c1)C1CCCCC1
fold change (androgen-induced gene 1 protein (Rattus norvegicus, UniProt F7EZV5); enzyme activity, ABPP; rat, brain; oral, 100 mg/kg/day, 28 days; relative to: vehicle): -3.6

C[C@H]1CN(c2n[nH]c3nc(N[C@H]4CC[C@H](NS(=O)(=O)CCC(F)(F)F)CC4)ncc23)CCO1
Hill coefficient (Mitotic checkpoint protein BUB3 (Homo sapiens, UniProt O43684); binding, Kinobeads competition, item: BUB3): 1

O=C(Nc1cnccc1Cl)N1CCN(Cc2ccc3c(c2)OC(F)(F)O3)CC1
inhibition (OPRD1 (Homo sapiens, UniProt P41143); radioligand binding, inhibitor; 50 µM, human, added: [3H]naltrindole): 6%

COc1ccc(N2C(=O)N(c3c(C)cccc3Cl)Cc3cnc(Nc4ccc(C5CCN(C)CC5)cc4OC)nc32)nc1
inhibition (KIT (Homo sapiens, UniProt P10721); kinase activity; 0.5 µM): 99%

CC(=O)C(c1ccccc1)c1ccccc1
efficacy (Bile acid receptor (NR1H4, Homo sapiens, UniProt Q96RI1); coactivator recruitment, antagonist, TR-FRET; NG, added: 50 µM CDCA): < 30%

CC(C)c1cccc(NC(=O)C2CC(=O)Nc3ccccc32)c1 (stereo not shown)
Hill slope (Procathepsin L (CTSL, Homo sapiens, UniProt P07711); enzyme activity, inhibitor, FRET; 10-point dose response): 0.807

COc1cc(N)c(Cl)cc1C(=O)NC1CN2CCC1CC2 (stereo not shown)
log2 fold change (Probable G-protein coupled receptor 19 (GPR19, Homo sapiens, UniProt Q15760); β-arrestin recruitment, TANGO luminescence, item: GPR19; concentration not given; relative to: basal luminescence): 0.211

Cc1nc(Nc2ccc(S(F)(F)(F)(F)F)cc2)c2c(C)noc2n1
IC50 ratio (PFF0160c E182D; enzyme activity, DCIP colorimetric; relative to: E182D mutant over wild type): 7.4

Nc1ncc(-c2nc(N3CCOCC3)nc(N3CCOCC3)n2)c(C(F)F)n1
remaining binding (HUNK (Homo sapiens, UniProt P57058); KINOMEscan; 10 µM): 78%

O=C(c1ccc(Cl)cc1)N1CCCC(C(=O)N(Cc2nnc(-c3ccccc3Cl)o2)C2CC2)C1 (stereo not shown)
IC50 ratio (PFF0160c E182D; enzyme activity, DCIP colorimetric; relative to: E182D mutant over wild type): 1.4

COc1ccc(Nc2nn3c(-c4ccccc4)ccnc3c2C(=O)Nc2ccc(Cl)cc2)cc1
abnormal band quantity (α-amylase isoenzymes; native PAGE densitometry; 1 mg/mL; relative to: untreated enzyme (band absent)): 9.27 a.u.

CC(C)[N+](C)(CCOC(=O)C1c2ccccc2Oc2ccccc21)C(C)C
activity class (ACHE; biochemical; concentration not given): inactive

CO[C@H]1C[C@@H]2CC[C@@H](C)[C@@](O)(O2)C(=O)C(=O)N2CCCC[C@H]2C(=O)O[C@H]([C@H](C)C[C@@H]2CC[C@@H](OC(=O)NCCOCCOCCOCCOCCOCCOCCOCCOCCC(=O)N3CCc4cc(Cn5nc(-c6ccc7oc(N)nc7c6)c6c(N)ncnc65)ccc4C3)[C@H](OC)C2)C[C@@H](O)[C@H](C)/C=C(\C)[C@@H](O)[C@@H](OC)C(=O)[C@H](C)C[C@H](C)/C=C/C=C/C=C/1C
AE leading to discontinuation (patients with advanced solid tumours; intravenous, 16 mg weekly, any grade): 25%

Repeated from above:
[2H]c1c([2H])c([C@]2([2H])CCCN2C(=O)C(C)(C)Oc2ccc3cn[nH]c3c2)c([2H])c([2H])c1C([2H])([2H])[2H]
remaining binding (HASPIN (Homo sapiens, UniProt Q8TF76); KINOMEscan; 1 µM; relative to: DMSO control): 72%

O=C(c1ccc(Cl)cc1)N1CCN2C(=O)N(OC(=O)N3CCOc4ccccc43)C(=O)C2C1 (stereo not shown)
median protein ratio (PPIA (Homo sapiens, UniProt P62937); MS-based ABPP; SW-620 conditioned medium; 10 µM, 1 h, 37 °C; relative to: compound over DMSO, lower = more inhibition): 1.21

C[C@H]1CN(c2n[nH]c3nc(N[C@H]4CC[C@H](NS(=O)(=O)CCC(F)(F)F)CC4)ncc23)CCO1
Hill coefficient (Mitotic checkpoint protein BUB3 (Homo sapiens, UniProt O43684); binding, Kinobeads competition, item: BUB3): 1
